Measurements from different studies.
Parts stem from different laboratories: compare values within a part only.

Series 1 — technique: aptamer microarray, sandwich; form: DNA with 2'F-ANA; medium: in vitro; concentration: 200 nM; with: Cy3 exosite-II aptamer, 400 nM; reading: higher = stronger binding; endpoint: mean fluorescence intensity; oligonucleotide: GGTTGGTGTGGTTGG
Target: Prothrombin, mature alpha-thrombin (F2, Homo sapiens, UniProt P00734)
Setting: whole 15-mer aptamer, many near background
2'F-ANA at 3 4 5 6 7 8 11 15: 115 a.u.
2'F-ANA at 1 2 3 4 5 7 8 9 11 14 15: 46.8 a.u.
2'F-ANA at 3 4 5 6 8 9 10 14 15: 48.7 a.u.
2'F-ANA at 2 3 8 12 14 15: 526 a.u.
2'F-ANA at 3 4 6 7 9 12: 834 a.u.
2'F-ANA at 2 5 7 9 12 14 15: 63.5 a.u.
2'F-ANA at 3 7 8 10 11 12 14 15: 400 a.u.

Series 2 — technique: protein-binding microarray; form: double-stranded DNA, one strand shown; medium: in vitro; concentration: 2540 nM top; setting: 60-bp whole probe; with: salmon DNA 0.4 mg/ml; baseline: random background probes; reading: higher = stronger binding; endpoint: fitted relative affinity; shared flanks, not repeated: GCCTAGCAC … GTCTTGATTCGCTTGACGCTGCTG
Target: Interferon regulatory factor 3, full length, phosphomimetic (IRF3, Homo sapiens, UniProt Q14653, residues 1-427, S386D/S396D/S398D/S402D/T404D/S405D)
Target sequence (chain): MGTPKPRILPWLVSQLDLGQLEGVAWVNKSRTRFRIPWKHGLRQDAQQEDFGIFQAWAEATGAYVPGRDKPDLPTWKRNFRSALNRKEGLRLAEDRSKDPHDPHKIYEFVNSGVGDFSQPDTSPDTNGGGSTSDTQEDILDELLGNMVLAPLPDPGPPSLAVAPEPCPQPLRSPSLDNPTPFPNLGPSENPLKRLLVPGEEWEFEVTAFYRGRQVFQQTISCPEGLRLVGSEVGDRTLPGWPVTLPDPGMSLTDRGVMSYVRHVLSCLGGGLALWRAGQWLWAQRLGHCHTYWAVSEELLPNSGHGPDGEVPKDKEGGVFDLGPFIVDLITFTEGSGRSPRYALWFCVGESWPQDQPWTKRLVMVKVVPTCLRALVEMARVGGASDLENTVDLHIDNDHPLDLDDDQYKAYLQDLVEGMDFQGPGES
TTAGATCTCAGCCTCGATTAGTGCTAG: -0.351 z-score
TTAGAACTCAGTATCGATTAGTGCTAG: 0.677 z-score
TAATTTTTACTTTCTGAATGGTGCTAG: 3.71 z-score
TAAGATTTCAGTATCGATTAGTGCTAG: 2.65 z-score
GACGGTTCCGGCTTCGGGACGTGCTAG: 1.3 z-score
TTAGGTTTCGGGTAGCGGTTAGTGCTA: 3.35 z-score

Series 3 — technique: protein-binding microarray; form: double-stranded DNA, one strand shown; medium: in vitro; concentration: not given; reading: higher = stronger binding; endpoint: E-score
Target: Transcriptional repressor CTCF (CTCF, Homo sapiens, UniProt P49711, residues 1-727, full length assumed)
UniProt P49711, sequence (whole entry, looked up): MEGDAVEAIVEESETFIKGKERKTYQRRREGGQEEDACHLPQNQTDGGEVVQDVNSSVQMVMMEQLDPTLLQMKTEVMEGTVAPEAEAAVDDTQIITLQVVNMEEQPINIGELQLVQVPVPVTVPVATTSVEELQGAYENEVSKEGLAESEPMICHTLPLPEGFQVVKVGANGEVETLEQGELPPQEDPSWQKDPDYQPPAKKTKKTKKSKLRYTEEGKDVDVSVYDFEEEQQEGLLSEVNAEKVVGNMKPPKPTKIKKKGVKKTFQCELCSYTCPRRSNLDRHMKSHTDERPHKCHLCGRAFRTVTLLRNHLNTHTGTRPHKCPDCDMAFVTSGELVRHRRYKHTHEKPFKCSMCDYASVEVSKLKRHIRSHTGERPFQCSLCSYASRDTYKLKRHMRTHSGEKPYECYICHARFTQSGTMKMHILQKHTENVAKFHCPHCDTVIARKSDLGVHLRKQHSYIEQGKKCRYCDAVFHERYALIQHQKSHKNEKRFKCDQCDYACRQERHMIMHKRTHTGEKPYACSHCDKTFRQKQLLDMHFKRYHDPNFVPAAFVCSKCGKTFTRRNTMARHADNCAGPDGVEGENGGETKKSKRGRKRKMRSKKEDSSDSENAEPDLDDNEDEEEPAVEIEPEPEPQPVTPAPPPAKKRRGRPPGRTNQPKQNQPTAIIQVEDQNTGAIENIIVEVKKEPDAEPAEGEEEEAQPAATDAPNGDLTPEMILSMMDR
Setting: k-mer, scored over probes, only values ≥0.25
AATATATA: 0.321
TAATTTAA: 0.291
ATGTAAAC: 0.267
AATGCGCT: 0.269
CAATTTAA: 0.303
ATATTCAT: 0.261

Other studies, line by line
PhoQ, residues 284 288 289 292 302 303 QWGLFV
fold induction (PhoP, residues 12 14 15 18 19 MHTVL (Escherichia coli, UniProt P23836); Sort-seq, item: YFP reporter; E. coli; PhoQ-PhoP variant library, with: 10 µM Mg2+; baseline: high Mg2+ state, higher = stronger signaling): 14.2

Excerpt of the above (series 2):
TAATTTTTACTTTCTGAATGGTGCTAG: 3.71 z-score
